# Assay results collected from several papers.
# Each numbered part is a random draw from the data of one study; scales do not carry over between parts.

# Sample 1
# Target: RING finger protein unkempt homolog, zinc fingers 1-6, GST-SBP tag (UNK, Homo sapiens, UniProt Q9C0B0, residues 30-357)
# Method: RNA Bind-n-Seq
# Molecule type: RNA
# Matrix: in vitro
# Concentration: not given
# Notes: RNA with constant flanks, ends assumed
# Relative to: input RNA pool
# Direction: higher = stronger binding
# All sequences stand within: GGGAGUUCUACAGUCCGACGAUC … CAACAGAGGAUUGAGCAUCA
# Construct (chain): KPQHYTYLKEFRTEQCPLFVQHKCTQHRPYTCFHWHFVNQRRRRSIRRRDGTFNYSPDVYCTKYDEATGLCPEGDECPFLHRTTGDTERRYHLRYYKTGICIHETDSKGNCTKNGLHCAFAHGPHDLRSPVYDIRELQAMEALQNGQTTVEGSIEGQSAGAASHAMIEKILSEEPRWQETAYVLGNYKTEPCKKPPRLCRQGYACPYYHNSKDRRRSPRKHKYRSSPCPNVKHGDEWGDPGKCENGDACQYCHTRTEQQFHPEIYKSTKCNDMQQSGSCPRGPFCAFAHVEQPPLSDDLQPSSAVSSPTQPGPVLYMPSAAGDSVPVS
Oligonucleotide,bound/input enrichment [ratio]
GGUGGAGAUGGAGAUGAUAUGGAAAUGUUCAUGGAGGAGAUGAGAGAGAUCCGGAGAAAGCUCCGGGAGCUACAGCUGAGAAAUUGUCUACGCAUCCUUAUGGGGGAGCUGUCUAACCAC,0.288
ACCACCCUCUCUGGGGUUCAAGAAGAGUCCGCUCUUUGCUAUCUUCUCCAGGUUGAUGAGUUCCGGUUUUUGUUGGACUGUGGCUGGGAUGAACACUUCUCUGUGGACAUUAUUGAUUCC,0.0408
AUUUUUGACCUGUACAGAAGAAGAUGGGGUGCUGGUUUACCACCAUGCCCAGGAUGUCAUUUCCGAAGUCAUUUACACUGACCCUGUGGAUCUUUCUGUGGGCACCGUGGCAGAAAUCAC,0.125
GCAAGAAUGCAGAGAGCUGGAAUUCCUUGUCCAACAGUUGUACUACUGAAGAAACACAUUUCCGUUAUGUCUUUUAUUGGCCAUGAUCAAGUUCCAGCCCCUAAAUUAAAAGAAGUAAAG,0.117
CUACCCAGCCCUCUUCUUGUUUGUAUUUGUUUAGGGUUGUGAGGUUGUGUAAAAUAGUACCCGCUUCUUACUUGAGAACUACAGUUUCUGCUUAUCAUUUAUUCUUCCUUGUGGCACUUA,0.408
AUAAUAAAUUAAAUAAUUGGAUCCUAGGCAUACCAAUAAAUGUUAUUUGGGGAAAGAAGCCCGCACUAUCUCAUGCAGUGAGAAUAACGGGUUCUAGUGAAUUAUCCUAUCUACACUACC,0.857
AAGCAACACUAAGCAUUCAUAAGUUAACCCAUGGUAAAGAGUGUUUUUCUGAAACUUUUUUUCCGUAAGAUGGUUUUUCAGCAAAUGGCAUUCCCAAGAUAAAGCUGUUGUGCUUUAACU,0.15
CCUCCCAAGUAGCUGGGACUACAGGUGUGUGCCACUAAGCUCAGCUAAUUUUUGUAUUUUCCGCCGAGACGGGGUUUCACCAUUUUGACCAGGAUGGUCUUGAUCUCUUGACCUCAUGAU,0.24

# Sample 2
# Target: Prothrombin, mature alpha-thrombin (F2, Homo sapiens, UniProt P00734)
# Method: aptamer microarray, sandwich
# Molecule type: DNA with 2'F-ANA
# Matrix: in vitro
# Concentration: 200 nM
# Notes: whole 15-mer aptamer, many near background
# Together with: Cy3 exosite-II aptamer, 400 nM
# Direction: higher = stronger binding
# Oligonucleotide: GGTTGGTGTGGTTGG
Modification,mean fluorescence intensity
2'F-ANA at 4 7 12 15,620 a.u.
2'F-ANA at 1 3 5 6 7 8 12 13 15,106 a.u.
2'F-ANA at 1 2 3 4 7 8 10 15,60 a.u.
2'F-ANA at 1 5 6 7 8 10 11 13 14 15,59.1 a.u.
2'F-ANA at 4 6 12,624 a.u.
2'F-ANA at 3 5 6 7 11 14 15,50 a.u.
2'F-ANA at 2 3 4 7 8 12 13 15,680 a.u.
2'F-ANA at 2 4 5 6 7 8 13 14 15,48.1 a.u.
2'F-ANA at 1 3 4 5 6 7 8 10 11 12,112 a.u.
2'F-ANA at 4 6 11 14 15,76.2 a.u.
2'F-ANA at 2 3 5 6 7 9 10 15,113 a.u.
2'F-ANA at 3 4 5 6 7 9 10 13 14 15,309 a.u.
2'F-ANA at 2 4 5 6 7 9 11,99.5 a.u.
2'F-ANA at 1 2 6 8 9 12 13 14 15,64.1 a.u.
2'F-ANA at 1 2 3 5 8 10 15,47.2 a.u.
2'F-ANA at 2 7 11 13 14 15,132 a.u.
2'F-ANA at 4 8 13 14,103 a.u.
2'F-ANA at 3 5 7 10 11 13 15,80.6 a.u.
2'F-ANA at 1 5 7 8 9 14,46.2 a.u.
2'F-ANA at 1 3 4 6 9 11,176 a.u.
2'F-ANA at 1 12 13 15,378 a.u.
2'F-ANA at 4 6 9 14 15,74.8 a.u.
2'F-ANA at 2 3 4 5 6 7 10 12,59.8 a.u.
2'F-ANA at 1 3 7 8 9 11 15,307 a.u.

# Sample 3
# Target: Histone acetyltransferase KAT6A, winged helix 2, GST fusion (KAT6A, Homo sapiens, UniProt Q92794, residues 85-181)
# Method: protein binding microarray
# Molecule type: double-stranded DNA, one strand shown
# Matrix: in vitro
# Concentration: not given
# Notes: 8-mer, flanks averaged, mean of 2 arrays, mostly near background
# Relative to: not given
# Direction: higher = stronger binding
# Residues (chain): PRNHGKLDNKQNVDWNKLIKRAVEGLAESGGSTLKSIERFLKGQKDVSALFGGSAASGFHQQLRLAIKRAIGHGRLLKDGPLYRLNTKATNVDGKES
Oligonucleotide,E-score
CGTGTGAA,0.0741
TCTACTCA,-0.136
ATAGACGC,-0.0244
ACTCTCGC,-0.0673
CCATAGAA,0.0373
ATTCCGCG,0.0733
CGACAATC,-0.0324
ACTAAATG,-0.0332
GTGCCCAC,0.0433
AGGAGCAA,0.00437
AAAATGTC,0.0379
AATCCCAG,0.0482
GCGATCAA,0.0216
GGTGATTA,-0.0172
GATCTCAA,0.0838
TCAAACCA,0.00498
CTACAGTC,-0.0743
CTGTGAAC,0.0242
AGGAGTTA,0.00012
ATGTGCTA,-0.162
AGGTTGGA,0.0774
GCAACTAC,-0.0702
GAATGCGA,0.102
CTAGACAA,-0.0581
GCGTGTTA,-0.0596

# Sample 4
# Target: Interferon regulatory factor 7, full length, phosphomimetic (IRF7, Homo sapiens, UniProt Q92985, residues 1-503, S101K/S471D/S472D/S475D/S476D/S477D/S483D/S484D/S487D)
# Method: protein-binding microarray
# Molecule type: double-stranded DNA, one strand shown
# Matrix: in vitro
# Concentration: 250 nM
# Notes: 60-bp whole probe
# Together with: salmon DNA 0.4 mg/ml
# Relative to: random background probes
# Direction: higher = stronger binding
# All sequences stand within: GCCTAGCAC … GTCTTGATTCGCTTGACGCTGCTG
# Target sequence (chain): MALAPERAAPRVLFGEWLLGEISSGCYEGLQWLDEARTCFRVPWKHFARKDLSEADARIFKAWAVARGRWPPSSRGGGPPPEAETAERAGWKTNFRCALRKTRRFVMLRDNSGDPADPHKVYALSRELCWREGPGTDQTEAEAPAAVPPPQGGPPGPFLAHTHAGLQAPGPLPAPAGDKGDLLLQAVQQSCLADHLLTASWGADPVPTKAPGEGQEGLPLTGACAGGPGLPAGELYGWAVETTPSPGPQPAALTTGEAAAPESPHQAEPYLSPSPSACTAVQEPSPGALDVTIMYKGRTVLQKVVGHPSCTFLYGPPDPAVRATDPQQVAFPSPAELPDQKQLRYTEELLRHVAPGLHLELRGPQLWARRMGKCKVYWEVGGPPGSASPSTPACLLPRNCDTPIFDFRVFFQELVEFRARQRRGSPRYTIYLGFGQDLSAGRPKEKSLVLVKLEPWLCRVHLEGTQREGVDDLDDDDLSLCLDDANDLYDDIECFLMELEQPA
Oligonucleotide,log fluorescence
GACGATATCAGTATCAAGACGTGCTAG,-0.232 z-score
GACGGACTGCTTCTCCTGAAGTGCTAG,-0.179 z-score
TTAGGTATCCTTTTCCGTTAGTGCTAG,1.59 z-score
GACGGTTTCGGGAATCGGGACGTGCTA,3.2 z-score
TCAGGTTTGAGTCTTCTACTGTGCTAG,-0.0823 z-score
GACGATCTCAGTATCGAGTCGTGCTAG,0.716 z-score
CCCTGTTTCCATCTCTCAAAGTGCTAG,3.5 z-score
GACGAACTTGGGACTGGAGACGTGCTA,-0.195 z-score
GACGATCTCAGTTGCGAGACGTGCTAG,0.262 z-score
CCACTTTCAGTTCTCCCTTTGTGCTAG,3.34 z-score
TCAGGACTGGGTCTCGGTTAGTGCTAG,0.771 z-score
TCAGCTTTTTTTTTTTTACTGTGCTAG,-0.0325 z-score
TGGAGTCTCTGTTCTTTTCAGTGCTAG,1.21 z-score
TTAGATATCGGTTTCGATTAGTGCTAG,9.4 z-score
TGTCCTGTCTACATGGGTGTGTGCTAG,0.406 z-score
TTAGGTATCGACTATCGGATAGTGCTA,0.303 z-score
TTAGGTATCGGGAATCGGTTAGTGCTA,0.42 z-score
GACGAAATCGGGTATCGAGACGTGCTA,-0.0669 z-score
GACGATTTCAGTTTCGAGCCGTGCTAG,2.42 z-score

# A few entries again (sample 3):
Oligonucleotide,E-score
AGGTTGGA,0.0774
ATGTGCTA,-0.162
GAATGCGA,0.102
AATCCCAG,0.0482
ACTAAATG,-0.0332
CGACAATC,-0.0324
CGTGTGAA,0.0741
CTAGACAA,-0.0581
GCGATCAA,0.0216
AGGAGTTA,0.00012
ACTCTCGC,-0.0673
